Assay results gathered from unrelated publications.
Lines come from different studies, so protocols differ. Several values in a cell are separate wells, animals, samples, runs or records. ± gives the spread as reported.

| SMILES | assay | system | conditions | scale | quantity | result |
| --- | --- | --- | --- | --- | --- | --- |
| CNC(=O)c1ccccc1Nc1cc(Nc2ccc(N3CCOCC3)cc2OC)ncc1C(F)(F)F |  | 0.1% w/v Soluplus buffer | 24 h, pH 6.8, 37 °C |  | solubility | > 40 µg/mL |
| CC(C)(C)c1sc2ncnc(Oc3c(F)cccc3OC(F)(F)F)c2c1-c1ccc(Cl)cc1 |  | wild-type mice, plasma | 30 mg/kg |  | oral bioavailability | 46% |
| C/C(=N\c1ccc(O)cc1)c1cc2ccccc2n1C |  | rat plasma | 1000 ng/mL, time not given, 3 freeze-thaw cycles | relative to: nominal | remaining compound | 101 ± 5.8% |
| C[C@H](CCC(=O)NCC(=O)O)[C@H]1CC[C@H]2[C@@H]3CC[C@@H]4C[C@H](OS(=O)(=O)O)CC[C@]4(C)[C@H]3CC[C@]12C |  | human, plasma | endogenous control diurnal | relative to: daily mean concentration | relative peak deviation | 89.5 ± 14.5% |
| CCn1cc(C(=O)N2CCOCC2)c(=O)c2cc(NC3Cc4ccccc4C3)cnc21 |  | human, fasted | oral suspension, 50 mg single dose, median |  | Tmax | 1.5 h |
| Cc1ccc([C@@H]2O[C@H](CO)[C@@H](O)[C@H](O)[C@H]2O)cc1Cc1ccc(-c2ccc(F)cc2)s1 |  | Japanese type 2 diabetes patients | 400 mg, day 16, 24 h urine collection | relative to: baseline | urinary potassium excretion change | -1.28 mEq |
| C[C@@H](N)C1CCN(S(=O)(=O)c2cccc3cnccc23)CC1 |  | healthy volunteers | 150 mg, fasted |  | participants with limb abscess | 0% |
| CCc1cc(C(=O)NC)c2nccc(N3CCc4c(cc(Cn5ccnc5)cc4-c4cn(C)nc4C(F)(F)F)C3=O)c2c1 |  | Sprague Dawley rats | oral, 100 mg/kg once daily, 7 days | relative to: vehicle | serum ALT change | -5.6% |
| CNC[C@H](O)[C@@H](O)[C@H](O)[C@H](O)CO.O=C([O-])CN1CCN(CC(=O)[O-])CCN(CC(=O)O)CCN(CC(=O)[O-])CC1.[Gd+3] |  | water | 20 °C, 1.0 T, non-self-assembled |  | r1 relaxivity | 4.13 ± 0.05 mM⁻¹ s⁻¹ |
| CC[C@@H]([C@H](C)O)n1ncn(-c2ccc(N3CCN(c4ccc(OC[C@@H]5CO[C@@](Cn6cncn6)(c6ccc(F)cc6F)C5)cc4)CC3)cc2)c1=O |  | rat plasma | 1600 ng/mL, 4 h, 10 °C, autosampler | relative to: nominal concentration | stability relative error | 0% |
| COc1cc(N2CCC3(CCN(C)CC3)CC2)ccc1Nc1ncc(Cl)c(Nc2ccccc2P(C)(C)=O)n1 | population PK model | human | oral, final model |  | V2/F | 295 L |
| N#Cc1ccc(C(c2ccc(C#N)cc2)n2cncn2)cc1 |  | human patients, tumour tissue at surgery | 5 mg daily |  | tumour concentration | 77 ± 15.7 ng/g |
| N#Cc1ccc2c(c1)[C@H]1CCCN(C(=O)c3ccc4[nH]cnc4c3)[C@H]1C2 |  | human | 240 mg, end of trial |  | maximum ACTH level | 10.8 pmol/L |
| NCCONC(=O)[C@@H]1CC[C@@H]2CN1C(=O)N2OS(=O)(=O)O | refers to: leading to permanent discontinuation | healthy Chinese men | intravenous, 1 g, treatment-emergent |  | adverse event incidence | 0% |
| CCn1c(=O)c(-c2cc(NC(=O)Nc3ccccc3)c(F)cc2Br)cc2cnc(NC)cc21 | refers to: amylase increased | human, mild hepatic impairment | oral, 50 mg single dose |  | participants with grade ≥ 3 TEAE | 12.5% |
| CC[C@H](C)CCCCC(=O)N[C@@H](CCN)C(=O)N[C@H](C(=O)N[C@@H](CCN)C(=O)N[C@H]1CCNC(=O)[C@H]([C@@H](C)O)NC(=O)[C@H](CCN)NC(=O)[C@H](CCN)NC(=O)[C@H](CC(C)C)NC(=O)[C@@H](Cc2ccccc2)NC(=O)[C@H](CCN)NC1=O)[C@@H](C)O |  | long-term haemodialysis patients, plasma | IV infusion, 0.75 mg/kg, 1 h infusion, arithmetic mean |  | terminal elimination rate constant | 0.0463 h⁻¹ |
| C[C@@H]1[C@H](O)[C@@H](C)/C=C/C=C/C=C/C=C/C=C/C=C/C=C/[C@H](O[C@@H]2O[C@H](C)[C@@H](O)[C@H](N)[C@@H]2O)C[C@@H]2O[C@](O)(C[C@@H](O)C[C@@H](O)[C@H](O)CC[C@@H](O)C[C@@H](O)CC(=O)O[C@H]1C)C[C@H](O)[C@H]2C(=O)O |  | human blood | 500 µg/mL, 48 h, DMSO solvent |  | hemolysis | 17.1% and 18.7% and 19.5% |
| Cc1cc2sc(N)nc2c2cccnc12 |  | female BALB/c mice, plasma | intraperitoneal, 30 mg/kg |  | MRT(0-t) | 4.82 h |
| C[C@H](CCC(=O)NCC(=O)O)[C@H]1CC[C@H]2[C@@H]3[C@H](O)C[C@@H]4C[C@H](O)CC[C@]4(C)[C@H]3C[C@H](O)[C@]12C |  | human, plasma | endogenous control diurnal | relative to: daily mean concentration | relative peak deviation | 181 ± 19% |
| O=C(NCCN1CCCC1)c1cc(-c2ccc(CN3CCOCC3)cc2)nc2ccc(F)cc12 |  | human | oral, 1800 mg |  | dizziness duration | 11.3 h and 10.8 h |

| SMILES | assay | system | conditions | scale | quantity | result |
| --- | --- | --- | --- | --- | --- | --- |
| COc1ccc([C@@H](O)c2cc(-c3ncnc4cc(N5CCOCC5)ccc34)c(F)cc2Cl)nn1 |  | locally advanced rectal cancer patients | 50 mg, added: capecitabine and radiotherapy |  | drug-related proctitis incidence | 100% |
| OC[C@H]1O[C@@H](c2ccc(F)c(Cc3cc4ccccc4s3)c2)[C@H](O)[C@@H](O)[C@@H]1O |  | Japanese patients, type 1 diabetes | oral, 100 mg/day, onset day 5 | relative to: patients | hypoglycaemia-related adverse event | 2% |
| CCCCCCCOc1ccc(CCC(N)(CO)CO)cc1C(F)(F)F.Cl |  | Sprague-Dawley rat, male, plasma | oral, 1 mg/kg |  | tlast | 8 h |
| CN1C[C@H](COc2nccc3c(NCc4ccco4)cc(Cl)nc23)OC1=O |  | rabbit NZW female, isolated Langendorff heart | 10 µM, 15 min |  | PR interval | 69 ms |
| Cc1cc(-c2nnc(N)nc2-c2ccc(F)cc2)cc(Cl)n1 | refers to: Vomiting | human phase Ia/Ib mCRPC, immunotherapy-naive | oral, dose not given |  | patients with treatment-related adverse events | 21.5% |
| O=C(Cc1ccc2ccccc2c1)Nc1cc(C2CCC2)[nH]n1 |  | extracted mouse plasma | 375 ng/mL, 24 h, 4 °C, autosampler stability |  | measured mean concentration | 382 ± 61.4 ng/mL |
| COc1ccc2[nH]c([S+]([O-])Cc3ncc(C)c(OC)c3C)nc2c1 (stereo not shown) |  | healthy Chinese volunteers, CYP2C19 intermediate metabolizers | oral, 20 mg, fasted |  | t1/2 | 0.99 ± 0.28 h |
| C=CC(=O)Nc1cc(Nc2nccc(-c3cn(C)c4ccccc34)n2)c(OC)cc1N(C)CCN(C)C | storage stability | human dried blood spots | 72 h, -80 °C, high QC level |  | recovery | 99.9% |
| CNCc1ccc(-c2[nH]c3cc(F)cc4c3c2CCNC4=O)cc1 |  | patients | oral, 600 mg twice daily, grade 5 |  | cough incidence | 0% |
| COc1cc2c3c(c(=O)oc2c(C2OCCCO2)c1O)CN(C)CC3 | HPLC | PBS | concentration not given, 48 h, 37 °C |  | acetal hydrolysis | ~70% |
| C=CCN1CC(=O)N2[C@@H](Cc3ccc(O)cc3F)C(=O)N(Cc3cccc(N4CC(N5CCN(CC)CC5)C4)n3)C[C@@H]2N1C(=O)NCc1ccccc1 | refers to: Diarrhea | advanced solid tumour patients | oral, 120 mg twice daily, expansion part, grade ≥3 |  | treatment-related adverse events | 0% |
| CN(C)C(=N)N=C(N)N | refers to: infections and infestations | healthy men | oral, dose not given, 8 days, treatment-emergent, crossover trial |  | subjects with adverse event | 0% |
| CNC(=O)c1ccc(-c2cnc3ncc(Cc4ccc5ncccc5c4)n3n2)cc1F |  | Japanese patients | oral, 400 mg twice daily, grade 3/4 |  | ILD patients | 1% |
| O=C(Nc1nc2cccc(-c3ccc(CN4CCS(=O)(=O)CC4)cc3)n2n1)C1CC1 | refers to: vertigo | rheumatoid arthritis patients | oral, 150 mg once daily, 4 weeks, any relatedness |  | treatment-emergent adverse events | 0% |
| Cc1ccc(C)c(OCCCC(C)(C)C(=O)O)c1 | refers to: AUC0-∞ | human subjects, plasma | oral, dose not given, added: lopinavir-ritonavir | relative to: with over without lopinavir-ritonavir | geometric mean ratio | 0.59 |
| COc1ncc(-c2nc3c(n2C(C)C)[C@H](c2ccc(Cl)cc2)N(c2cc(Cl)cn(C)c2=O)C3=O)c(OC)n1 |  | human patients, plasma | oral, 45 mg, cycle 1 day 1, low-dose |  | geometric mean Cmax | 425 ng/mL |
| CC(C)=CC[C@@H](O)C1=CC(=O)c2c(O)ccc(O)c2C1=O |  | plasma | 0.5 ng/mL, 4 h, room temperature, stability |  | measured concentration | 0.49 ± 0.02 ng/mL |
| CC(C)[C@@H](CS(=O)(=O)C(C)C)N1C(=O)[C@@](C)(CC(=O)O)C[C@H](c2cccc(Cl)c2)[C@H]1c1ccc(Cl)cc1 |  | FVB Abcb1a/b-/-Abcg2-/- mice | oral, 20 mg/kg |  | oral bioavailability | 31% |
| Cc1nc(-c2cnc(NC(C)C)n(C)c2=O)ccc1Oc1ccnc(-c2cnn(C)c2)c1 |  | Beagle dog, male, plasma | oral, 10 mg/kg, crossover study, mean |  | AUC(0-inf) | 22000 ng·h/mL |
| C=CC[C@@H]1/C=C(\C)C[C@H](C)C[C@H](OC)[C@H]2O[C@@](O)(C(=O)C(=O)N3CCCC[C@H]3C(=O)O[C@H](/C(C)=C/[C@@H]3CC[C@@H](O)[C@H](OC)C3)[C@H](C)[C@@H](O)CC1=O)[C@H](C)C[C@@H]2OC |  | male Wistar Kyoto rat, 24-hour urine | intraperitoneal, 0.5 mg/kg/day, day 18 |  | urinary Ca2+ excretion | 139 ± 39 µmol/day |

Some of these lines once more:
| SMILES | assay | system | conditions | scale | quantity | result |
| --- | --- | --- | --- | --- | --- | --- |
| C[C@H](CCC(=O)NCC(=O)O)[C@H]1CC[C@H]2[C@@H]3CC[C@@H]4C[C@H](OS(=O)(=O)O)CC[C@]4(C)[C@H]3CC[C@]12C |  | human, plasma | endogenous control diurnal | relative to: daily mean concentration | relative peak deviation | 89.5 ± 14.5% |
| CCn1cc(C(=O)N2CCOCC2)c(=O)c2cc(NC3Cc4ccccc4C3)cnc21 |  | human, fasted | oral suspension, 50 mg single dose, median |  | Tmax | 1.5 h |
| Cc1ccc([C@@H]2O[C@H](CO)[C@@H](O)[C@H](O)[C@H]2O)cc1Cc1ccc(-c2ccc(F)cc2)s1 |  | Japanese type 2 diabetes patients | 400 mg, day 16, 24 h urine collection | relative to: baseline | urinary potassium excretion change | -1.28 mEq |
| C[C@@H](N)C1CCN(S(=O)(=O)c2cccc3cnccc23)CC1 |  | healthy volunteers | 150 mg, fasted |  | participants with limb abscess | 0% |
| CCc1cc(C(=O)NC)c2nccc(N3CCc4c(cc(Cn5ccnc5)cc4-c4cn(C)nc4C(F)(F)F)C3=O)c2c1 |  | Sprague Dawley rats | oral, 100 mg/kg once daily, 7 days | relative to: vehicle | serum ALT change | -5.6% |
| CNC[C@H](O)[C@@H](O)[C@H](O)[C@H](O)CO.O=C([O-])CN1CCN(CC(=O)[O-])CCN(CC(=O)O)CCN(CC(=O)[O-])CC1.[Gd+3] |  | water | 20 °C, 1.0 T, non-self-assembled |  | r1 relaxivity | 4.13 ± 0.05 mM⁻¹ s⁻¹ |
